# Measured values collected from several papers.
# Each numbered part is a random draw from the data of one study; scales do not carry over between parts. Positions count from the first letter of the parent shown.
# Sequence of UniProt Q15303 (whole entry, looked up): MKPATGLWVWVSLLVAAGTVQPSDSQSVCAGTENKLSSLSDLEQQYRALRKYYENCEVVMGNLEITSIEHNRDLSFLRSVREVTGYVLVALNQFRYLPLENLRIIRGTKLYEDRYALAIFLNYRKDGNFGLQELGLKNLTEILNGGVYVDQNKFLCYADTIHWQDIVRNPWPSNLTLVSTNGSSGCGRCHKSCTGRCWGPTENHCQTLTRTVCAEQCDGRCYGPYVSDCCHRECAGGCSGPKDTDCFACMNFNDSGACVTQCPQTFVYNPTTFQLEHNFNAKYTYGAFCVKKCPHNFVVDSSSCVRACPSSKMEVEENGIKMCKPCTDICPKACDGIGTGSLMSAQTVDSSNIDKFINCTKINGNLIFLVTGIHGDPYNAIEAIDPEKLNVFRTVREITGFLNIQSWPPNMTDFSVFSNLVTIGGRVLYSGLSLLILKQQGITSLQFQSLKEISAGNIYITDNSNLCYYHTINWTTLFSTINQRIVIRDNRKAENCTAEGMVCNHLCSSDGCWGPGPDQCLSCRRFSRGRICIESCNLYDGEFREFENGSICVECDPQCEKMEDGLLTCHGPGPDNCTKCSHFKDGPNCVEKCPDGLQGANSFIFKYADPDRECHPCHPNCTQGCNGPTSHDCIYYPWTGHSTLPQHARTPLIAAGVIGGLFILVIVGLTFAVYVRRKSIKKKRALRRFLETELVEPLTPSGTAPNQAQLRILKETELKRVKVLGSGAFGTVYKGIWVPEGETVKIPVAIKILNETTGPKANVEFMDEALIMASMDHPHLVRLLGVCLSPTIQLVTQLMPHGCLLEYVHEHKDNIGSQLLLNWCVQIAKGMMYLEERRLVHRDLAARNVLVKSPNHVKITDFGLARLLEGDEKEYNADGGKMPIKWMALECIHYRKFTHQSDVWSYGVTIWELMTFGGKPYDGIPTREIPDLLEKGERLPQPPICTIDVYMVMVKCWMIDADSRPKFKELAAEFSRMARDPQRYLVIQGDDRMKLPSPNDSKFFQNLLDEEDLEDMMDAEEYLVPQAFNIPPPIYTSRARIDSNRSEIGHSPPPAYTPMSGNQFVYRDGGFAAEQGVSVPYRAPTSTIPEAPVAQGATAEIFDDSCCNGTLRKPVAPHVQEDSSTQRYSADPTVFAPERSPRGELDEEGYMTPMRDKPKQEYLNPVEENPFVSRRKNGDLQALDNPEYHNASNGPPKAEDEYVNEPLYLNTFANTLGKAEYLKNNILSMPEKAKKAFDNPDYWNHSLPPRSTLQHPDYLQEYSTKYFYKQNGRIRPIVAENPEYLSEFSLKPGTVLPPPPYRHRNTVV

# Set 1 — method: RNA Bind-n-Seq; form: RNA; sample: in vitro; concentration: 1 µM; setting: whole 134-nt RNA, ends assumed; together with: 150 mM KCl; relative to: input library; reading: higher = stronger binding
# Target: Ras GTPase-activating protein-binding protein 1, RRM domain (G3BP1, Homo sapiens, UniProt Q13283)
# Sequence of UniProt Q13283 (whole entry, looked up): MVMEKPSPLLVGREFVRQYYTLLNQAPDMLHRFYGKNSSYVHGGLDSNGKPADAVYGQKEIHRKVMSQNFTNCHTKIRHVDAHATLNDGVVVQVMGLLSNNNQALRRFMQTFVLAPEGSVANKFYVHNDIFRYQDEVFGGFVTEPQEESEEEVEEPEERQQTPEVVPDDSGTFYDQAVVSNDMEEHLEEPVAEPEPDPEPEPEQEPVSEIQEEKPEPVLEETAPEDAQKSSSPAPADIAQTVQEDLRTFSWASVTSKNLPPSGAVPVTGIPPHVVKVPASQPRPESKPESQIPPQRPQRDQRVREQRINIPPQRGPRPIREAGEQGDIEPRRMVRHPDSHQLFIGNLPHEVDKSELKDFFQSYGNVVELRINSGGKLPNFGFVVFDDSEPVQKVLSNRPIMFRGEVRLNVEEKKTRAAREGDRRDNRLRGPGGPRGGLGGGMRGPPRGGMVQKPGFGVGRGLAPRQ
# Shared flanks, not repeated: GGGAGUUCUACAGUCCGACGAUC … UGGAAUUCUCGGGUGUCAAGG
Oligonucleotide,log2 enrichment
UCAAGUCCUGUGCUACACAUCGUAUGUACCGAAUCGGGUUUUUGGGUGGGAGGGAAAGUAUUAUGUUACGCCGUUCGGAUCUGCACUUCC,0.4
CCUGUGCUACACAUCGUAUGUACCGAAUCAAAUUUUUAAAUUUUUUUAAACCCCCCCAAAAAAGUAUUAUGUUACGCCGUUCGGAUCUGC,-0.956
CCUGUGCUACACAUCGUAUGUACCGAAUCGGAAAAAAGGGGAAAAAAGGGGAAAAAAGGGGAAAGUAUUAUGUUACGCCGUUCGGAUCUG,-0.105
AAGUCCUGUGCUACACAUCGUAUGUACCGAAUCGGGAAAAAGGGAGGGAAAAAGGGAAAGUAUUAUGUUACGCCGUUCGGAUCUGCACUU,0.54
UAACUUUAGAGGAGGAUCUGAUGGAUAUGGCAGUGGACGUGGAUUUUGGGAUGGCUAUAAUGGGUAUGGAGGAGGACCUGGAGGUGGCAA,-0.426
UGGUGACCUACCUGGACGUCCGGAGCUGCCUUGGACACCUAGGCUACCUGGGCUACCCCACCCUCUGUGAGCAGGACCAGGCCCAUGCCA,-0.163
CAAGUCCUGUGCUACACAUCGUAUGUACCGAAUCGGGUUUUUGGGAAAGGGUGGGAAAGUAUUAUGUUACGCCGUUCGGAUCUGCACUUC,0.691
UGGGAGGUGGAUUUUGUUUAUUUUUUUAGCUCAUUUCCAGGGGUGGGAAUUUUUUUUUAAUAUGUGUCAUGAAUAAAGUUGUUUUUGACA,1.81

# Set 2 — target: CEP164, C-terminal peptide (human); method: DHFR complementation, deep sequencing; sample: yeast; relative to: wild type; reading: higher = weaker binding
# Setting: single substitutions, model-inferred values
# Starting sequence: PDZK1, PDZ domain 2 (human); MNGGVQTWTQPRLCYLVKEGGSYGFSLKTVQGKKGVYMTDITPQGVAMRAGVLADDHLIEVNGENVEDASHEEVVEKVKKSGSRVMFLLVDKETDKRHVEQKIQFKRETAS; partner HNRVKVYRF
Change,binding free energy change
V5T,-0.0766 kcal/mol
Y23C,1.49 kcal/mol
H57A,-0.245 kcal/mol
L27F,0.821 kcal/mol
S81H,0.658 kcal/mol
P43R,0.437 kcal/mol
Q10K,-0.0931 kcal/mol
V61I,0.321 kcal/mol

# Set 3 — method: aptamer microarray, sandwich; form: DNA with 2'F-ANA; sample: in vitro; concentration: 200 nM; together with: Cy3 exosite-II aptamer, 400 nM; reading: higher = stronger binding; oligonucleotide: GGTTGGTGTGGTTGG
# Target: Prothrombin, mature alpha-thrombin (F2, Homo sapiens, UniProt P00734)
# Setting: whole 15-mer aptamer, many near background
Modification,mean fluorescence intensity [a.u.]
2'F-ANA at 1 2 4 5 7 9 10 12 14 15,44.3
2'F-ANA at 3 4 5 6 7 8 10 12 15,63.6
2'F-ANA at 3 4 6 7 8 9 12 13 14 15,247
2'F-ANA at 1 2 3 8 9 13,182
2'F-ANA at 1 5 6 7 8 10 12 13 14 15,46.3
2'F-ANA at 1 3 4 5 7 11 13 14,47.6
2'F-ANA at 2 3 4 5 6 7 8 12 13,129
2'F-ANA at 6 8 9 10 11 12 14,112

# Further values, each from its own experiment
SMILES,target,test,setting,scale,quantity,result
O=C1NC(=O)/C(=C/c2ccc3nccnc3c2)S1,"Receptor tyrosine-protein kinase erbB-4 (ERBB4, Homo sapiens, UniProt Q15303)","enzyme activity, inhibitor",0.5 µM,relative to: control,remaining activity,99.4%
